Measurements gathered from unrelated publications.
Numbered parts are unrelated; each lists some results of a single study. Changes are numbered by the printed parent chain.
Chain of UniProt Q38831 (whole entry, looked up): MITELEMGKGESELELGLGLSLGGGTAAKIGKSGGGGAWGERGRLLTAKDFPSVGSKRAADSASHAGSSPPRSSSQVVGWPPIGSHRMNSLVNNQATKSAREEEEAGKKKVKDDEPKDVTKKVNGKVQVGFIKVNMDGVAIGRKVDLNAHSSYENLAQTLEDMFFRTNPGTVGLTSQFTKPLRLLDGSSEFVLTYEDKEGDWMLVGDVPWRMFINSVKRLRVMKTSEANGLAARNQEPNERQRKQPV
Chain of UniProt Q9ZTX9 (whole entry, looked up): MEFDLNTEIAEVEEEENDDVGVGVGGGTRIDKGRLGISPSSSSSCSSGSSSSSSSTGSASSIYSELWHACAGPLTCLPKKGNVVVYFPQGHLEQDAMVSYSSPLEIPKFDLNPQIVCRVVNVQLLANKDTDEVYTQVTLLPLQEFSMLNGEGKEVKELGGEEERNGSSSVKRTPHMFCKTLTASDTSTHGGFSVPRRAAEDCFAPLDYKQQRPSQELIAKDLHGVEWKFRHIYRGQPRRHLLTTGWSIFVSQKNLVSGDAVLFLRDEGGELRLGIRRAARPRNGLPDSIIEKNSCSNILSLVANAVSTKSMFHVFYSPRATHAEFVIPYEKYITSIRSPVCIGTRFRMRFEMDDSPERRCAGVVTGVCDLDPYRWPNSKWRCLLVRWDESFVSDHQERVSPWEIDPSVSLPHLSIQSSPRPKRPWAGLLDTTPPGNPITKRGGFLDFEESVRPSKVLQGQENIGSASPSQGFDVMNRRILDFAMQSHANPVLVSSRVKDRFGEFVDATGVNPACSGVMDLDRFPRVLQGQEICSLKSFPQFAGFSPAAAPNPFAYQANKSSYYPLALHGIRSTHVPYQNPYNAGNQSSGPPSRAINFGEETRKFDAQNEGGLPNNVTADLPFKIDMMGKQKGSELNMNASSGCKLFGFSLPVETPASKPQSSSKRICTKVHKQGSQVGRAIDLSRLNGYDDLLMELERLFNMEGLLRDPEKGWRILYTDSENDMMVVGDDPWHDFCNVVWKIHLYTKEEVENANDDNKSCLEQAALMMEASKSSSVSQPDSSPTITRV
Chain of UniProt Q38829 (whole entry, looked up): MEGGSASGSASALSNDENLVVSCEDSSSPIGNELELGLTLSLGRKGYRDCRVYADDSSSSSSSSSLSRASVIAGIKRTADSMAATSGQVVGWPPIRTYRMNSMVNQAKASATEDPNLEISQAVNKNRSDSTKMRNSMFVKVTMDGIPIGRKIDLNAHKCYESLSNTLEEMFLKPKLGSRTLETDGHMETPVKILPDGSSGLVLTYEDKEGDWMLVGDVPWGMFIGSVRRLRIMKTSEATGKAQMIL
Chain of UniProt Q9XID4 (whole entry, looked up): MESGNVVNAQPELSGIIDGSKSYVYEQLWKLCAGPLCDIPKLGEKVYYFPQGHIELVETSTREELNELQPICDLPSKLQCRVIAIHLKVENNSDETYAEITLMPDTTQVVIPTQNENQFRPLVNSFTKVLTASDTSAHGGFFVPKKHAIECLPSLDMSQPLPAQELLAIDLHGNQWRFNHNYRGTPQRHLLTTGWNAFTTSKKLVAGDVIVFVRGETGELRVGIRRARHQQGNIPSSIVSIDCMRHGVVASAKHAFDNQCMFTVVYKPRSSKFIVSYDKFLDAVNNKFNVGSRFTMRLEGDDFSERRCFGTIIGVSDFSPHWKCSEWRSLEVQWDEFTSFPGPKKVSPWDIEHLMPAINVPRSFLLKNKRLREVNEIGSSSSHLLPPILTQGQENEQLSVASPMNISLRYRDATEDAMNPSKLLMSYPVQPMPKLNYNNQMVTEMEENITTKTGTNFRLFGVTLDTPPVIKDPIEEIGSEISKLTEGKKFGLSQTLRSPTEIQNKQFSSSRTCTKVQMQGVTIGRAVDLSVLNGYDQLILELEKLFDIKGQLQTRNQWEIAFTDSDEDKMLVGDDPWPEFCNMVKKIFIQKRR

Sample 1 — technique: RNA Bind-n-Seq; form: RNA; medium: in vitro; concentration: 90 pmol; setting: 4-mer, random 30-nt RNA, single round; added: 3 µM DMDA-PatA, 2 mM ADP, 2 mM phosphate; reference: input library; reading: higher = stronger binding
Target: ATP-dependent RNA helicase DDX3X, helicase core (DDX3X, Homo sapiens, UniProt O00571, residues 132-607)
Chain of UniProt O00571 (132-607, looked up): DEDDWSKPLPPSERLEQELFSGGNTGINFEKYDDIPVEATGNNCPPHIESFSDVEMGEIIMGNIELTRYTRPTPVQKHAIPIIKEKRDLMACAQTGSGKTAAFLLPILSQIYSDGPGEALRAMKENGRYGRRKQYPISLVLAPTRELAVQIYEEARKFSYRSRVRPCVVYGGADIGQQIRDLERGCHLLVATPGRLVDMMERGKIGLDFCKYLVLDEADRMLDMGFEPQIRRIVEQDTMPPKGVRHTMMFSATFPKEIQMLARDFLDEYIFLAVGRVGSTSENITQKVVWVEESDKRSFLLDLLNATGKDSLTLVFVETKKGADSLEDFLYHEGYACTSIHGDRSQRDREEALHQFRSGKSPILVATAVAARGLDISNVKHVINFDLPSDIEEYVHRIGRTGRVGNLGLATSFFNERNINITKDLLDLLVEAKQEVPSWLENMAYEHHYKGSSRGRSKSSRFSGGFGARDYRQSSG
`GUUA` has a 4-mer enrichment of 1.07 fold.
With `GGUC` the 4-mer enrichment was 0.869 fold.
For `AGGU`, the 4-mer enrichment was 1.11 fold.
For `GUGA`, the 4-mer enrichment was 1.12 fold.
The 4-mer enrichment of `UACU` is reported as 0.792 fold.
`UGUC` has a 4-mer enrichment of 0.879 fold.
The 4-mer enrichment of `AACA` is reported as 1.01 fold.
`UUUA` has a 4-mer enrichment of 1.09 fold.
For `GAUG`, the 4-mer enrichment was 0.902 fold.
The 4-mer enrichment of `ACAG` is reported as 0.942 fold.
With `AGUU` the 4-mer enrichment was 1.19 fold.
For `AGAG`, the 4-mer enrichment was 1.24 fold.
For `AAGG`, the 4-mer enrichment was 1.21 fold.
With `CCCC` the 4-mer enrichment was 1.33 fold.
For `CACC`, the 4-mer enrichment was 1.05 fold.
With `ACCA` the 4-mer enrichment was 1 fold.
With `UUAU` the 4-mer enrichment was 1.03 fold.
With `UUCC` the 4-mer enrichment was 0.935 fold.
`UCAA` gave a 4-mer enrichment of 1.03 fold.
The 4-mer enrichment of `AAAA` is reported as 1.19 fold.
The 4-mer enrichment of `GGGU` is reported as 1.17 fold.
`UUCA` has a 4-mer enrichment of 0.989 fold.

Sample 2 — technique: universal PBM; form: double-stranded DNA, one strand shown; medium: in vitro; concentration: 600 nM; reading: higher = stronger binding
Target: Sal-like protein 4, full length isoform A (SALL4, Homo sapiens, UniProt Q9UJQ4, residues 1-1053)
Chain of UniProt Q9UJQ4 (whole entry, looked up): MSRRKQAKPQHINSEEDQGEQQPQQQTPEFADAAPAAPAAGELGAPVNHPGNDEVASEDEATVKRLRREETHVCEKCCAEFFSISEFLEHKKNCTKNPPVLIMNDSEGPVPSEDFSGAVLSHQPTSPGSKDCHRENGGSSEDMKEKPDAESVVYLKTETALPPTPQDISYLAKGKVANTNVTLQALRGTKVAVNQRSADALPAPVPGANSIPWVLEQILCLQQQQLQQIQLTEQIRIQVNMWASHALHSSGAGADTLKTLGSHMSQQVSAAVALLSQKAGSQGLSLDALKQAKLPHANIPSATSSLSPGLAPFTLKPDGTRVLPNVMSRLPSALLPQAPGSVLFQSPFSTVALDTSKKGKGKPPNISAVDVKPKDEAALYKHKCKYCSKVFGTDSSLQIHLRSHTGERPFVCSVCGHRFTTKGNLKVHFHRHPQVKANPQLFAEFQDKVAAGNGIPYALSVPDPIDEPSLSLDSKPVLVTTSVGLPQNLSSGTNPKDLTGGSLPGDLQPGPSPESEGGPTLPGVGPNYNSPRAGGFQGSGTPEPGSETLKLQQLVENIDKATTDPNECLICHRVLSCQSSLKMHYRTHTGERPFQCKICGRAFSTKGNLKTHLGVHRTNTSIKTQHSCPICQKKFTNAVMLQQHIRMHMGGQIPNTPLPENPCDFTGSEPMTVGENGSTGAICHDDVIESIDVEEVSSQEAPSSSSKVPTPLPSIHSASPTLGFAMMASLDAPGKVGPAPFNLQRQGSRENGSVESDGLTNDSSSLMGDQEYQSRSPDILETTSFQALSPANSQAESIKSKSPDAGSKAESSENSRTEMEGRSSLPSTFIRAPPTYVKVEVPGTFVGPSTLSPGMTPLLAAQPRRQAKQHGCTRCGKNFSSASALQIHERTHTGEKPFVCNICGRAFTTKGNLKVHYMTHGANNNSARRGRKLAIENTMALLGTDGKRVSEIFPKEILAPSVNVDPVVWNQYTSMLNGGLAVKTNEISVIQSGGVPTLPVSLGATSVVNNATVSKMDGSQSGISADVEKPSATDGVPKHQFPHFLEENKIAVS
Setting: 8-mer, flanks averaged, mean of replicates
`CTCTATTA` has an E-score of 0.25.
`CCATGAGA` gave an E-score of 0.00212.
`GTACGCCA` has an E-score of -0.197.
The E-score of `AGACGGGG` is reported as -0.345.
`ACTAGTGG` gave an E-score of -0.134.
The E-score of `CCCAAAAA` is reported as 0.0373.
`CATTCTGA` has an E-score of 0.117.
With `ATGTCAGC` the E-score was -0.184.
For `CACCTTCG`, the E-score was -0.116.
The E-score of `CCTGAGCA` is reported as -0.108.
The E-score of `CTAGCTGA` is reported as -0.087.
The E-score of `AGGCTTCA` is reported as -0.161.
`TATTGCGA` gave an E-score of 0.176.
`AAAGCATT` gave an E-score of 0.228.
For `CCCCAGGA`, the E-score was -0.332.
The E-score of `AGTTGTAA` is reported as 0.141.
The E-score of `CGAGTTGC` is reported as -0.169.
`GACGTCGA` has an E-score of -0.149.
The E-score of `CAAGCGTA` is reported as -0.059.
`CCTCGCAC` gave an E-score of -0.218.
With `CCAATGGG` the E-score was -0.334.

Sample 3 — Molecule: B1 (IAA10); technique: two-hybrid; reading: higher = firmer interaction
B1: IAA10 (Arabidopsis thaliana, UniProt Q38828); chain MNGLQEVCSSSGSVMIGLPAEEDENAAHSSEDSSCPDESVSETELDLALGLSIGRRKVRSSLSSSSSSLTRESGTKRSADSSPAAASNATRQVAVGWPPLRTYRINSLVNQAKSLATEGGLSSGIQKETTKSVVVAAKNDDACFIKSSRTSMLVKVTMDGVIIGRKVDLNALDSYAALEKTLDLMFFQIPSPVTRSNTQGYKTIKETCTSKLLDGSSEYIITYQDKDGDWMLVGDVPWQMFLGSVTRLRIMKTSIGAGVGK
The positive tests was 0 (IAA13 (Arabidopsis thaliana, UniProt Q38831); reference: out of 3 tests).
For ARF4 660-788 (Arabidopsis thaliana, UniProt Q9ZTX9); reference: out of 4 tests: positive tests read 1.
For ARF12 500-593 (Arabidopsis thaliana, UniProt Q9XID4); reference: out of 4 tests: positive tests read 1.
For IAA11 (Arabidopsis thaliana, UniProt Q38829); weak activation fusion; reference: out of 2 tests: positive tests read 0.

Sample 4 — technique: DHFR PCA, deep sequencing; medium: yeast; added: (+)-ABA 0.39 µM; reference: wild-type fitted maximum; reading: higher = stronger binding
Target: ABI1, truncated, D143A, DHFR fusion (Arabidopsis thaliana)
Setting: methotrexate growth selection, single substitutions
Starting sequence: PYL1, truncated, DHFR fusion (Arabidopsis thaliana); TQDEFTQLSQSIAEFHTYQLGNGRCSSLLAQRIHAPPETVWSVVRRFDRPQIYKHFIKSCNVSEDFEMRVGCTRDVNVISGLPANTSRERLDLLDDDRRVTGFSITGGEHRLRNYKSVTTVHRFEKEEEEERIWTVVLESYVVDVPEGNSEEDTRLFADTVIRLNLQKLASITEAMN; partner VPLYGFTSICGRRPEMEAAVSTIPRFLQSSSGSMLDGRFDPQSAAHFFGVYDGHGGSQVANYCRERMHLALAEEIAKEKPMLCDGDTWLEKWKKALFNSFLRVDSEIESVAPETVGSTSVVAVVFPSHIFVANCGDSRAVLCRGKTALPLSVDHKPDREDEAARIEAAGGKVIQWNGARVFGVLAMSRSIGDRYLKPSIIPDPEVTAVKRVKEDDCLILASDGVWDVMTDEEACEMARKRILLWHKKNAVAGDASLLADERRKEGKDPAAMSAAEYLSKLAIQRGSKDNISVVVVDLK
`I172A` — result for “relative binding score”: 1.36%.
`T106K` — result for “relative binding score”: -11.8%.
`S104V`: “relative binding score” 3.07%.
For `L164N`, “relative binding score” read -17.6%.
Under “relative binding score”, `S26D` is recorded as -17%.
For `R88M`, “relative binding score” read 23.7%.
`P83C` — result for “relative binding score”: 2.01%.
For `V137S`, “relative binding score” read -8.46%.
`S171N` — result for “relative binding score”: 27.1%.
Under “relative binding score”, `R45M` is recorded as -1.9%.
`R111I` — result for “relative binding score”: 3.51%.
For `N165C`, “relative binding score” read 7.14%.
For `S59C`, “relative binding score” read 10.6%.
`V62F` — result for “relative binding score”: 6.05%.
`G23M` — result for “relative binding score”: 16.6%.
For `E14Q`, “relative binding score” read 26.7%.
`C72H`: “relative binding score” 4.78%.
For `G107K`, “relative binding score” read -6.59%.
`T119P`: “relative binding score” -10%.

Sample 5 — target: CCND3, cyclin fold, Cln2 fusion (human); technique: yeast growth competition, sequencing; medium: yeast; setting: weak parent motif; reference: not given; reading: higher = stronger binding
Starting sequence: ANKRD17 docking peptide (human); PSVRRQLFVTVVK
`PSVRRQAFVTVVK [L7A]` — result for “normalised enrichment score”: 0.193.
`PSVRRQLFVAVVK [T10A]`: “normalised enrichment score” 0.202.
Under “normalised enrichment score”, `PSVRRQLFVTAVK [V11A]` is recorded as 0.21.
`PSVRRQLLVTVVK [F8L]` — result for “normalised enrichment score”: -0.186.
`PSVRAQLFVTVVK [R5A]`: “normalised enrichment score” 0.241.
`PAVRRQLFVTVVK [S2A]` — result for “normalised enrichment score”: 0.168.
`PSVRRQLFVTVVA [K13A]`: “normalised enrichment score” 0.0861.
`PSVRAQAFVTVVK [R5A L7A]`: “normalised enrichment score” 0.0147.
Under “normalised enrichment score”, `PSARRQLFVTVVK [V3A]` is recorded as 0.191.
`PSVRKQLFVTVVK [R5K]` — result for “normalised enrichment score”: -0.0897.

A few entries again (sample 5):
`PSVRRQAFVTVVK [L7A]` — result for “normalised enrichment score”: 0.193.
`PSVRRQLFVAVVK [T10A]`: “normalised enrichment score” 0.202.
Under “normalised enrichment score”, `PSVRRQLFVTAVK [V11A]` is recorded as 0.21.
`PSVRRQLLVTVVK [F8L]` — result for “normalised enrichment score”: -0.186.
`PSVRAQLFVTVVK [R5A]`: “normalised enrichment score” 0.241.
`PAVRRQLFVTVVK [S2A]` — result for “normalised enrichment score”: 0.168.
`PSVRRQLFVTVVA [K13A]`: “normalised enrichment score” 0.0861.
`PSVRAQAFVTVVK [R5A L7A]`: “normalised enrichment score” 0.0147.
Under “normalised enrichment score”, `PSARRQLFVTVVK [V3A]` is recorded as 0.191.
`PSVRKQLFVTVVK [R5K]` — result for “normalised enrichment score”: -0.0897.
